Assay results gathered from unrelated publications.
Several values in a cell are separate wells, animals, samples, runs or records. Numbers after ± are the reported error.

Compound | test | system | setting | tissue uptake
CCCC[C@H](NC(=O)CNC(=O)CNC(=O)[C@H](CCCCNC(=O)[C@H](CC(N)=O)NC(=O)C(C)c1ccc(CC(C)C)cc1)NC(=O)CN1CCN(CC(=O)O)CCN(CC(=O)O)CCN(CC(=O)O)CC1)C(=O)N[C@H]1CC(=O)NCCCC[C@@H](C(N)=O)NC(=O)[C@H](Cc2c[nH]c3ccccc23)NC(=O)[C@H](CCCNC(=N)N)NC(=O)[C@@H](Cc2ccccc2)NC(=O)[C@H](Cc2c[nH]cn2)NC1=O (some centres unmarked) [lutetium-177 labelled] |  | C57 mice, tumour-bearing, kidneys | 2 h | 29.9 ± 2.56 %ID/g
CC(C)c1noc(C2CCN(c3ncnc(Nc4ccc(OCC[18F])cc4)c3[N+](=O)[O-])CC2)n1 | ex vivo biodistribution after PET | C57BL/J male mice, spleen | 60 min | 1.48 ± 0.41 %ID/g
CCCC[C@H](NC(=O)CCCCCCCNC(=O)CN1CCN(CC(=O)O)CCN(CC(=O)O)CC1)C(=O)N[C@H]1CC(=O)NCCCC[C@@H](C(N)=O)NC(=O)[C@H](Cc2c[nH]c3ccccc23)NC(=O)[C@H](CCCNC(=N)N)NC(=O)[C@@H](Cc2ccccc2)NC(=O)[C@H](Cc2c[nH]cn2)NC1=O [fluorine-18 labelled] |  | C57 mice, B16/F10 melanoma, skin | intravenous, 1 h, together with: NDP-MSH 10 µg | 0.3 ± 0.09 %ID/g
CC(=O)N([O-])CCCCCNC(=O)CCC(=O)N([O-])CCCCCNC(=O)CCC(=O)N([O-])CCCCCN.[89Zr+4] | gamma counting | healthy Balb/c mice, plasma | intravenous, 24 h, 89Zr-labelled complex | 0.03 %ID/g
C[N+](C)(CCOCCOCCOCCOCCOCCOCCOCCNC(=S)Nc1ccc(CC2CN(CC(=O)[O-])CCN(CC(=O)[O-])CCN2CC(=O)[O-])cc1)C[c-]1cccc1.[64Cu+2].[Fe+2].c1cc[cH-]c1 (centres unmarked) | item: kidney | nude mice, BxPC-3 tumour | 8 h, pretargeting, 72 h lag | 0.2 %ID/g
COc1ccc2c(c1)C(C)(C)C(/C=C/C1=C(Oc3ccc(C(=O)NCCCCOc4cc(CN(Cc5ccccn5)Cc5ccccn5)cc(CN(Cc5ccccn5)Cc5ccccn5)c4)cc3)C(=C/C=C3/N(CCCCS(=O)(=O)[O-])c4ccc(OC)cc4C3(C)C)CCC1)=[N+]2CCCCS(=O)(=O)[O-].O=[N+]([O-])[O-].O=[N+]([O-])[O-].[99Tc+].[C-]#[O+].[C-]#[O+].[C-]#[O+].[Zn+2] |  | BALB/c mice, S. aureus myositis, contralateral muscle | 12 h post-injection | 0.21 %ID/g and 0.1 %ID/g and 0.13 %ID/g and 0.24 %ID/g
CC(C)C[C@H](NC(=O)[C@@H](CCCCNC(=O)[C@@H](Cc1ccccc1)NC(=O)CCCCCCCNC(=O)CN1CCN(CC(=O)O)CCN(CC(=O)O)CCN(CC(=O)O)CC1)NC(=O)[C@H](Cc1ccc(O)cc1)NC(=O)[C@H](CO)NC(=O)[C@H](Cc1c[nH]c2ccccc12)NC(=O)[C@H](Cc1c[nH]cn1)NC(=O)[C@@H]1CCC(=O)N1)C(=O)N[C@@H](CCCNC(=N)N)C(=O)N1CCC[C@H]1C(=O)NCC(N)=O [indium-111 labelled] |  | male athymic nude mice, DU-145 xenograft, kidney | intravenous, 1 h, together with: 10 µg unlabelled blocking peptide | 9.63 ± 1.47 %ID/g
N#C[C@@H]1CCCN1C(=O)CNC(=O)c1ccnc2ccc(OCCCN3CCN(C(=O)CCc4ccc5c(c4)CN4CCN6CC(=O)[O][68Ga-]([O]C(=O)C4)([O]5)[O]c4ccc(CCC(=O)N5CCN(CCCOc7ccc8nccc(C(=O)NCC(=O)N9CCC[C@H]9C#N)c8c7)CC5)cc4C6)CC3)cc12 |  | BALB/c nude mice, U-87 MG xenograft, spleen | 2 h | 0.68 ± 0.1 %ID/g
Cc1nc(N)nc2c1C(=O)N[C@@H](c1ccc(F)cc1-c1cccc(OCC[18F])n1)C2 | ex vivo biodistribution | C57BL/6 mice, heart | intravenous, 1 MBq, 30 min | 0.64 ± 0.07 %ID
O=C(O)CCCOc1ccc([18F])cc1-c1cc(-c2ccccc2C(F)(F)F)n(-c2ccccc2)n1 |  | mice, large intestine | intravenous, 60 min | 0.4 ± 0.1 %ID/g
N#C[C@@H]1CCCN1C(=O)CNC(=O)c1ccnc2ccc(OCCCN3CCN(C(=O)CCc4ccc(O)c(CN5CCN6CC(=O)[O][Al-]([18F])([O]C(=O)C5)[O]c5ccc(CCC(=O)N7CCN(CCCOc8ccc9nccc(C(=O)NCC(=O)N%10CCC[C@H]%10C#N)c9c8)CC7)cc5C6)c4)CC3)cc12 (some centres unmarked) |  | BALB/c nude mice, U-87 MG xenograft, blood | 1 h, blocking, together with: DOTA-FAPI-04 40 nmol/mouse co-injected | 7.11 ± 1.85 %ID/g
O=C(NCC1OC2CCC=CCCC2O1)c1ccc(COCCOCCOCC[18F])cc1 (centres unmarked) |  | healthy female BALB/c nude mice, bone | intravenous, 7.4 MBq per mouse, 120 min | 2.5 ± 0.2 %ID/g
O=C([O-])CN1CCN(CC(=O)[O-])CCN(CC(=O)NC[C@H]2CC[C@H](C(=O)N[C@H](Cc3cnc4ccccc4c3)C(=O)NCCCC[C@H](NC(=O)N[C@@H](CCC(=O)O)C(=O)O)C(=O)O)CC2)CCN(CC(=O)[O-])CC1.[64Cu+2] | ex vivo gamma counting | 22Rv1 tumour-bearing mice, blood | intravenous, 0.74 MBq, 24 h post-injection | 2.24 %ID/g
Cc1cc(C)n(CCN(CCN)CCCCCCNC(=O)[C@@H](N)Cc2c[nH]cn2)n1.[99Tc+].[C-]#[O+].[C-]#[O+].[C-]#[O+] |  | BALB/c nude mice, A549 xenograft, stomach | intravenous, 15 min | 0.79 ± 0.25 %IA/g
CCCC[C@H](NC(=O)CNC(=O)CNC(=O)[C@H](CCCCNC(=O)[C@H](CC(=O)O)NC(=O)C(C)c1ccc(CC(C)C)cc1)NC(=O)CN1CCN(CC(=O)O)CCN(CC(=O)O)CCN(CC(=O)O)CC1)C(=O)N[C@H]1CC(=O)NCCCC[C@@H](C(N)=O)NC(=O)[C@H](Cc2c[nH]c3ccccc23)NC(=O)[C@H](CCCNC(=N)N)NC(=O)[C@@H](Cc2ccccc2)NC(=O)[C@H](Cc2c[nH]cn2)NC1=O (some centres unmarked) [lutetium-177 labelled] |  | C57 mice, tumour-bearing, kidneys | intravenous, 0.037 MBq, 4 h | 13.5 ± 1.42 %ID/g
CN(O)C(=O)CCC(=O)NCCCN(CCCCN(CCCNC(=O)CCC(=O)N(C)O)C(=O)CCC(=O)N(C)O)C(=O)CCC(=O)N(C)O.[89Zr] | gamma counting | healthy Balb/c mice, muscle | intravenous, 4 h, 89Zr-labelled complex | 0.01 %ID/g
CC[C@H](C)[C@H](NC(=O)C[C@H](NC(=O)CN1CCN2CCN(CC1)CC(=O)[O][Al]([18F])[O]C(=O)C2)C(=O)O)C(=O)N[C@H]1CCc2cccc3c2N(C1=O)[C@H](C(=O)NCc1cn[nH]n1)C3 |  | C57BL/6J mice, MC-38 tumour, anti-PD-1 treated, muscle | 0.5 h | 0.4 ± 0.13 %ID/g
N[C@H](CSC(F)(F)[18F])C(=O)O |  | Kunming mice, turpentine inflammation, normal muscle | intravenous, 0.74 MBq, 60 min | 1.32 ± 0.17 %ID/g
CCCC[C@H](NC(=O)COCCOCCNC(=O)CN1CCN(CC(=O)O)CCN(CC(=O)O)CC1)C(=O)N[C@H]1CC(=O)NCCCC[C@@H](C(N)=O)NC(=O)[C@H](Cc2c[nH]c3ccccc23)NC(=O)[C@H](CCCNC(=N)N)NC(=O)[C@@H](Cc2ccccc2)NC(=O)[C@H](Cc2c[nH]cn2)NC1=O [fluorine-18 labelled] |  | C57 mice B16-F10 melanoma, stomach | intravenous, 0.37 MBq, 2 h | 0.35 ± 0.14 %ID/g
COc1ccc(Nc2nc(Nc3ccc(OCCOCCOCC[18F])cc3)ncc2Br)cc1 |  | ICR mice, S180 tumour-bearing, muscle | intravenous, 370 kBq, 30 min | 2.07 ± 0.1 %ID/g
Cc1cc(C)n(CCN(CCN)CCCCCCNC(=O)[C@@H](N)Cc2c[nH]c3ccccc23)n1.[99Tc+].[C-]#[O+].[C-]#[O+].[C-]#[O+] |  | BALB/c nude mice, A549 xenograft, liver | intravenous, 15 min | 37.7 ± 5.37 %IA/g
COc1ccc(Nc2nc(Nc3ccc(OCCOCC[18F])cc3)ncc2Br)cc1 |  | ICR mice, S180 tumour-bearing, heart | intravenous, 370 kBq, 30 min | 2.93 ± 0.14 %ID/g
O=C(NCC1OC2CCC=CCCC2O1)c1ccc([18F])nc1 (centres unmarked) |  | healthy female BALB/c nude mice, small intestine | intravenous, 7.4 MBq per mouse, 10 min | 11.5 ± 1.7 %ID/g

Excerpt of the above:
Compound | test | system | setting | tissue uptake
N[C@H](CSC(F)(F)[18F])C(=O)O |  | Kunming mice, turpentine inflammation, normal muscle | intravenous, 0.74 MBq, 60 min | 1.32 ± 0.17 %ID/g
N#C[C@@H]1CCCN1C(=O)CNC(=O)c1ccnc2ccc(OCCCN3CCN(C(=O)CCc4ccc(O)c(CN5CCN6CC(=O)[O][Al-]([18F])([O]C(=O)C5)[O]c5ccc(CCC(=O)N7CCN(CCCOc8ccc9nccc(C(=O)NCC(=O)N%10CCC[C@H]%10C#N)c9c8)CC7)cc5C6)c4)CC3)cc12 (some centres unmarked) |  | BALB/c nude mice, U-87 MG xenograft, blood | 1 h, blocking, together with: DOTA-FAPI-04 40 nmol/mouse co-injected | 7.11 ± 1.85 %ID/g
C[N+](C)(CCOCCOCCOCCOCCOCCOCCOCCNC(=S)Nc1ccc(CC2CN(CC(=O)[O-])CCN(CC(=O)[O-])CCN2CC(=O)[O-])cc1)C[c-]1cccc1.[64Cu+2].[Fe+2].c1cc[cH-]c1 (centres unmarked) | item: kidney | nude mice, BxPC-3 tumour | 8 h, pretargeting, 72 h lag | 0.2 %ID/g
